Experimental data of several laboratories.
Lines come from different studies, so protocols differ. Numbers after ± are the reported error. In brackets after ≈: the same amount, converted by molar mass.
UniProt Q96RR4, sequence (whole entry, looked up): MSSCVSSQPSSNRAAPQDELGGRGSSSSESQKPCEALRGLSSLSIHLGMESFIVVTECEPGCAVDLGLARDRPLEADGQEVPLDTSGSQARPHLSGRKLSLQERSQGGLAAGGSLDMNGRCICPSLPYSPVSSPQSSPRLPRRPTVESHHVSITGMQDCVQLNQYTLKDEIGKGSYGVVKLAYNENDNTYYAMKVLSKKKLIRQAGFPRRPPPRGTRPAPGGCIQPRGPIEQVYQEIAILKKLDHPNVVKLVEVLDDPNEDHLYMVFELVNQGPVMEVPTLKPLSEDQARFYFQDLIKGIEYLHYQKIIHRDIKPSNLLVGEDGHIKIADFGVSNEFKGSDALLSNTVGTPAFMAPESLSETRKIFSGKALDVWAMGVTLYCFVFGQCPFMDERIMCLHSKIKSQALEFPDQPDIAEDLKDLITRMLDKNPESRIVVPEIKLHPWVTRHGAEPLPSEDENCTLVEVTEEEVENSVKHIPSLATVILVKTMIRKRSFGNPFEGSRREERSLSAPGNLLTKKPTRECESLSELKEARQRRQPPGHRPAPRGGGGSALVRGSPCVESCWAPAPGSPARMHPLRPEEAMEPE

CC(C)C[C@H](NC(=O)C[C@H](O)[C@H](CC(C)C)NC(=O)[C@H](Cc1c[nH]cn1)NC(=O)CNC(=O)[C@@H](NC(=O)[C@H](C)NC(=O)[C@H](Cc1c[nH]c2ccccc12)NC(=O)[C@H](CCC(N)=O)NC(=O)[C@@H](Cc1ccccc1)NC(=O)COCCOCCNC(=O)CCC(C(=O)O)N1CCN(CC(=O)O)CCN(CC(=O)O)CCN(CC(=O)O)CC1)C(C)C)C(N)=O (stereo partly shown) [lutetium-177 labelled]  tissue uptake (BALB/c nu/nu mice, female, stomach; 100 pmol, 30 min, time course 0.5 h, together with: PA 300 µg): 4 ± 1 %ID/g
CC[C@@H]1[C@H](F)C(=O)N[C@@H]1COc1nccc2cc(C(N)=O)c(OC)cc12  inhibition (CAMKK2 (Homo sapiens, UniProt Q96RR4); ATP-site probe binding, ActivX profiling; THP-1 cell lysate; 0.04 mM, Lys2 site): 9.8%
c1coc(-c2n[nH]cc2-c2ccnc3ccccc23)c1  log2 fold change (orf19.4575 Candida albicans; kinase binding, MIB/MS competition; Candida albicans lysate; 10 µM; relative to: DMSO): -0.14
O=c1[nH]c2ncsc2c(=O)n1O  root length inhibition (Brassica rapa; 10 mg/mL, 72 h): 94%
CC(=O)N(C)[C@H]1CCN(C(=O)c2cnc3c(c2)C[C@](C)(c2ccc(F)cc2)N3)C1  pantothenic acid level (vanin activity; human, whole blood ex vivo stimulated; 30 mg, 1 h post-dose; relative to: baseline): 13.5%
CC(C)C[C@H](NC(=O)C[C@H](O)[C@H](CC(C)C)NC(=O)[C@H](Cc1c[nH]cn1)NC(=O)CNC(=O)[C@@H](NC(=O)[C@H](C)NC(=O)[C@H](Cc1c[nH]c2ccccc12)NC(=O)[C@H](CCC(N)=O)NC(=O)[C@@H](Cc1ccccc1)NC(=O)COCCOCCNC(=O)CN1CCN(CC(=O)O)CCN(CC(=O)O)CCN(CC(=O)O)CC1)C(C)C)C(N)=O [lutetium-177 labelled]  tissue uptake (female BALB/c nu/nu mice, spleen; intravenous, 50 pmol, 24 h): 0.02 ± 0.01 %ID/g
CN[C@H](CC(C)C)C(=O)N[C@H]1C(=O)N[C@@H](CC(N)=O)C(=O)N[C@H]2C(=O)N[C@H]3C(=O)N[C@H](C(=O)N[C@H](C(=O)O)c4cc(O)cc(O)c4-c4cc3ccc4O)[C@H](O)c3ccc(c(Cl)c3)Oc3cc2cc(c3O[C@@H]2O[C@H](CO)[C@@H](O)[C@H](O)[C@H]2O[C@H]2C[C@](C)(N)[C@H](O)[C@H](C)O2)Oc2ccc(cc2Cl)[C@H]1O  MIC50 (Staphylococcus aureus; MRSA; 10 isolates): 0.5 µg/mL (≈ 0.345 µM)
OC(CCN1CCCCC1)(c1ccccc1)C1CC2C=CC1C2 (stereo not shown)  EEG Alpha2-power Fz-Cz (resting-state EEG; healthy elderly humans; oral, 4 mg, eyes open, LS mean): 1.9 µV²
CC(C)NCC(O)c1ccc(O)c(O)c1 (stereo not shown)  sarcomere length (ventricular cardiomyocytes, C57BL/6 mouse; dose not given, 0.804 s): 1.62 µm
Cn1cc(-c2ccc(-c3cncc(Cl)c3N3CCC4(CCNC4=O)CC3)cc2)cn1  log2 fold change (COLO 205; gene expression, microarray, item: EMP1 mRNA; concentration not given, 6 h; relative to: untreated cells): 3.73
N#Cc1ccc2c(c1)[C@H]1CCCN(C(=O)c3ccc4[nH]cnc4c3)[C@H]1C2  median ACTH level (human; 240 mg, day 7): 5.2 pmol/L
CC(C)(C(=O)N1CCOc2c(C#N)cncc2C1)C(F)F  subjects with myalgia TEAE (human, both sexes; oral, 20 mg single dose): 0%
CC(=O)NC[C@H]1CN(c2ccc(N3CCOCC3)c(F)c2)C(=O)O1  MIC50 (Streptococcus pneumoniae; penicillin-resistant, 10 isolates; serum 75%): 4 µg/mL (≈ 11.9 µM)
Cc1cc(F)cc2c(CCC(=O)N[C@@H]3C(=O)NC[C@H]3O)c(-c3ccc(F)cc3)[nH]c12  UACR (proteinuria, item: urine albumin/creatinine; APOL1 G2 mice; 30 mg/kg twice daily, day 6, together with: IFNγ): 5690 µg/mg
Oc1ccccc1-c1n[nH]cc1-c1ccnc2ccccc12  log2 fold change (HRK1 (Candida albicans); kinase binding, MIB/MS competition; Candida albicans lysate; 10 µM; relative to: DMSO): 0.17
Cc1cc(OC(C)C)ccc1C(=O)C(C)(C)NC(=O)c1sccc1C  inhibition (Botrytis cinerea; conidial germination; B05.10; 10 µg/mL): 99.8 ± 0.3%
